Measurements pooled from the literature.
Each numbered part is a random draw from the data of one study; scales do not carry over between parts.

Series 1 — method: aptamer microarray, sandwich; form: DNA with 2'F-ANA; medium: in vitro; tested at: 200 nM; added: Cy3 exosite-II aptamer, 400 nM; reading: higher = stronger binding
Target: Prothrombin, mature alpha-thrombin (F2, Homo sapiens, UniProt P00734)
Setting: whole 15-mer aptamer, many near background
`GGTTGGTGTGGTTGG (2'F-ANA at 3 6 10)`: “mean fluorescence intensity” 606 a.u.
`GGTTGGTGTGGTTGG (2'F-ANA at 1 5 6 8 9 12 13 14)`: “mean fluorescence intensity” 46.1 a.u.
For `GGTTGGTGTGGTTGG (2'F-ANA at 7 12 14)`, “mean fluorescence intensity” read 316 a.u.

Further values, each from its own experiment
SALL4 full length isoform A: Sal-like protein 4, full length isoform A (SALL4, Homo sapiens, UniProt Q9UJQ4, residues 1-1053)
UniProt Q9UJQ4, sequence (whole entry, looked up): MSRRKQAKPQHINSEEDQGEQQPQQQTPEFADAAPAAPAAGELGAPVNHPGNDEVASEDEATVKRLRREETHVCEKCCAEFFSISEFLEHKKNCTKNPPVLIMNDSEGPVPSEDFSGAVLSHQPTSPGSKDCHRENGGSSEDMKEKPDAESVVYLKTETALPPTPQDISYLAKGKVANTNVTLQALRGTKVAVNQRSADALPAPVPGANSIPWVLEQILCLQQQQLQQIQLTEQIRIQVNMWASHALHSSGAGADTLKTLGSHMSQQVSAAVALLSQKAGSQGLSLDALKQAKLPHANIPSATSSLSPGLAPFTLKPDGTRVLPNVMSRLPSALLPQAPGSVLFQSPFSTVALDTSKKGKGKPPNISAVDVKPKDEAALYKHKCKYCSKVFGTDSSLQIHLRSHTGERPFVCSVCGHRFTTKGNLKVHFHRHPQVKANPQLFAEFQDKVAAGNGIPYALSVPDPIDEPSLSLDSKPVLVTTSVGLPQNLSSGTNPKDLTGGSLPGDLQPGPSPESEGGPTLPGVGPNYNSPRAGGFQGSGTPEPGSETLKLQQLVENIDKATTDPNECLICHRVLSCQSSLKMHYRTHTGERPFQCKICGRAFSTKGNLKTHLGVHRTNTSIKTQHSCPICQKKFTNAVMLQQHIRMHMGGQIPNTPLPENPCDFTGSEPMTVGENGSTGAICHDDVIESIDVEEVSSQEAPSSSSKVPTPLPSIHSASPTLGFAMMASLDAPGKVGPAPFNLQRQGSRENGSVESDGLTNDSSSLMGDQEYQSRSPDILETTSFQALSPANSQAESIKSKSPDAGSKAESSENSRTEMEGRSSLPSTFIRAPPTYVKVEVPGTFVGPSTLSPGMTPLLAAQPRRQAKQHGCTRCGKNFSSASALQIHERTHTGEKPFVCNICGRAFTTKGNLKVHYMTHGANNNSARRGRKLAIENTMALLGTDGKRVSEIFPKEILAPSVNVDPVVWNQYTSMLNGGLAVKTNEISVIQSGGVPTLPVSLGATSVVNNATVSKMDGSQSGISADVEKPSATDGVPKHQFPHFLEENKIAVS
With `GAAAGCAA` the E-score was 0.202 (Histone acetyltransferase KAT6A, winged helix 2, GST fusion (KAT6A, Homo sapiens, UniProt Q92794, residues 85-181); protein binding microarray; double-stranded DNA, one strand shown, in vitro; not given, 8-mer, flanks averaged, mean of 2 arrays, mostly near background; reference: not given, higher = stronger binding).
The E-score of `ACGCCTTA` is reported as -0.0877 (SALL4 full length isoform A; universal PBM; double-stranded DNA, one strand shown, in vitro; 600 nM, 8-mer, flanks averaged, mean of replicates; higher = stronger binding).
For `AATTACCC`, the E-score was 0.0342 (Histone acetyltransferase KAT6A, winged helix 1, GST fusion (KAT6A, Homo sapiens, UniProt Q92794, residues 1-85); protein binding microarray; double-stranded DNA, one strand shown, in vitro; not given, 8-mer, flanks averaged, mean of 2 arrays, mostly near background; reference: not given, higher = stronger binding).
`GAAACGCA` gave an E-score of -0.0744 (SALL4 full length isoform A; universal PBM; double-stranded DNA, one strand shown, in vitro; 600 nM, 8-mer, flanks averaged, mean of replicates; higher = stronger binding).
`PhoQ, residues 284 288 289 292 302 303 STVVAA` has a fold induction of 0.44 (PhoP, residues 12 14 15 18 19 QYFSL (Escherichia coli, UniProt P23836); Sort-seq, refers to: YFP reporter; E. coli; PhoQ-PhoP variant library, added: 10 µM Mg2+; reference: high Mg2+ state, higher = stronger signaling).

Excerpt of the above (further values, each from its own experiment):
For `AATTACCC`, the E-score was 0.0342 (Histone acetyltransferase KAT6A, winged helix 1, GST fusion (KAT6A, Homo sapiens, UniProt Q92794, residues 1-85); protein binding microarray; double-stranded DNA, one strand shown, in vitro; not given, 8-mer, flanks averaged, mean of 2 arrays, mostly near background; reference: not given, higher = stronger binding).
